Assay results collected from several papers.
± marks the error that the study gave. Positions of bridges follow the written chain, without caps; N, C: chain ends. Bridge positions count the residues as written; N and C are the ends. Non-standard residues stand in square brackets, D forms with d. Square brackets hold non-standard residues; d marks the D form. Ends that are not written are not given here. No end group written: not given here. * marks the point of attachment. *: point of attachment.
HapB/HapC/HapE/HapX HapX 24-158: HapB/HapC/HapE/HapX HapX 24-158 (Aspergillus fumigatus)
PLAT: PLAT (Homo sapiens, UniProt P00750)
Chain of UniProt P00750 (whole entry, looked up): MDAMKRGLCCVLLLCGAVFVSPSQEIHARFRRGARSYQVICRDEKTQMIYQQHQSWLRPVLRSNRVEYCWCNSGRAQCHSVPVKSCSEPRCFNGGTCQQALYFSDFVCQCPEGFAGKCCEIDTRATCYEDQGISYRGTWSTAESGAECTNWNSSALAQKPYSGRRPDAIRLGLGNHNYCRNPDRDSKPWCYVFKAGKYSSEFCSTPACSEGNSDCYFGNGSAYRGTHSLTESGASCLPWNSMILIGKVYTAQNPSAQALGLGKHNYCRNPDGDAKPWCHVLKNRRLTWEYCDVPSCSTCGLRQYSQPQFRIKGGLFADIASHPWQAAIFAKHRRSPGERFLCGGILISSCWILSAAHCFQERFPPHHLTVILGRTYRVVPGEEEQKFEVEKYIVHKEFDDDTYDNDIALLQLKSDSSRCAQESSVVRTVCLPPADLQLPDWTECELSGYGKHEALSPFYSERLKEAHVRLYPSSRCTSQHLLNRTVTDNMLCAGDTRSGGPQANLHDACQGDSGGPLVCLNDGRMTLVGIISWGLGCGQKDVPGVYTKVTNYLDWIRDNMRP
B1: traR 1-73 (Escherichia coli, UniProt P41065); chain MSDEADEAYSVTEQLTMTGINRIRQKINAHGIPVYLCEACGNPIPEARRKIFPGVTLCVECQAYQERQRKHYA
B2: acrA (Escherichia coli, UniProt P0AE06); N-terminal lipid at C25; chain CDDKQAQQGGQQMPAVGVVTVKTEPLQITTELPGRTSAYRIAEVRPQVSGIILKRNFKEGSDIEAGVSLYQIDPATYQATYDSAKGDLAKAQAAANIAQLTVNRYQKLLGTQYISKQEYDQALADAQQANAAVTAAKAAVETARINLAYTKVTSPISGRIGKSNVTEGALVQNGQATALATVQQLDPIYVDVTQSSNDFLRLKQELANGTLKQENGKAKVSLITSDGIKFPQDGTLEFSDVTVDQTTGSITLRAIFPNPDHTLLPGMFVRARLEEGLNPNAILVPQQGVTRTPRGDATVLVVGADDKVETRPIVASQAIGDKWLVTEGLKAGDRVVISGLQKVRPGVQVKAQEVTADNNQQAASGAQPEQSKS
Chain of UniProt O75762 (whole entry, looked up): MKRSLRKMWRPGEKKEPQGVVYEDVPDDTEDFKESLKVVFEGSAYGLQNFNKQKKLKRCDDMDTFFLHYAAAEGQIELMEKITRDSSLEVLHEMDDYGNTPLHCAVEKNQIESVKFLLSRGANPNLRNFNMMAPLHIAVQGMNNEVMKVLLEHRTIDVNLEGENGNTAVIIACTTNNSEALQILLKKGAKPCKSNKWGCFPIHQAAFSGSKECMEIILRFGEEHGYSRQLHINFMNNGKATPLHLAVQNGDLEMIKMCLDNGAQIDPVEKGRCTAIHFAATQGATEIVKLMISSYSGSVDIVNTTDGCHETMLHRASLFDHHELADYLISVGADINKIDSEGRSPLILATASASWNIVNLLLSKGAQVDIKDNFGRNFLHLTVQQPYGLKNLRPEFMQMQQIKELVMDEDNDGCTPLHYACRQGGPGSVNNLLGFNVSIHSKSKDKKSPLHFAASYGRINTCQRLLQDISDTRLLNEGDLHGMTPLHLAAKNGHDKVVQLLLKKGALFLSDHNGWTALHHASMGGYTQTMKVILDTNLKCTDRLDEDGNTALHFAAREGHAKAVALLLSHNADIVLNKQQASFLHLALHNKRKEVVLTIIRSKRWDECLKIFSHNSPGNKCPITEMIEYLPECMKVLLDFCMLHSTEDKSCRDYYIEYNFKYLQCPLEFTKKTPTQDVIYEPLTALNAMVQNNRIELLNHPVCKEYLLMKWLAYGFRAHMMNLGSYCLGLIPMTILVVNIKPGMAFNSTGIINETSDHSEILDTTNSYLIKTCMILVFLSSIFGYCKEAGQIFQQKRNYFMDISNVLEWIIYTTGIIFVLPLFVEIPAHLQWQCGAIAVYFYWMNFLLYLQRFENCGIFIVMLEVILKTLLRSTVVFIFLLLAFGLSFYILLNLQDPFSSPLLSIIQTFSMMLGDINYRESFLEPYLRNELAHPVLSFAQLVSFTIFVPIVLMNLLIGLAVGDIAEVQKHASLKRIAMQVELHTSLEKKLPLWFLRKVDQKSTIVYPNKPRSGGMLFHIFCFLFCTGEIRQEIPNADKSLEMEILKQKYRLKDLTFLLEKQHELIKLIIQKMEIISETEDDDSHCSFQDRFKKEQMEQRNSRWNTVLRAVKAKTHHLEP
Chain of UniProt P29375 (1-797, looked up): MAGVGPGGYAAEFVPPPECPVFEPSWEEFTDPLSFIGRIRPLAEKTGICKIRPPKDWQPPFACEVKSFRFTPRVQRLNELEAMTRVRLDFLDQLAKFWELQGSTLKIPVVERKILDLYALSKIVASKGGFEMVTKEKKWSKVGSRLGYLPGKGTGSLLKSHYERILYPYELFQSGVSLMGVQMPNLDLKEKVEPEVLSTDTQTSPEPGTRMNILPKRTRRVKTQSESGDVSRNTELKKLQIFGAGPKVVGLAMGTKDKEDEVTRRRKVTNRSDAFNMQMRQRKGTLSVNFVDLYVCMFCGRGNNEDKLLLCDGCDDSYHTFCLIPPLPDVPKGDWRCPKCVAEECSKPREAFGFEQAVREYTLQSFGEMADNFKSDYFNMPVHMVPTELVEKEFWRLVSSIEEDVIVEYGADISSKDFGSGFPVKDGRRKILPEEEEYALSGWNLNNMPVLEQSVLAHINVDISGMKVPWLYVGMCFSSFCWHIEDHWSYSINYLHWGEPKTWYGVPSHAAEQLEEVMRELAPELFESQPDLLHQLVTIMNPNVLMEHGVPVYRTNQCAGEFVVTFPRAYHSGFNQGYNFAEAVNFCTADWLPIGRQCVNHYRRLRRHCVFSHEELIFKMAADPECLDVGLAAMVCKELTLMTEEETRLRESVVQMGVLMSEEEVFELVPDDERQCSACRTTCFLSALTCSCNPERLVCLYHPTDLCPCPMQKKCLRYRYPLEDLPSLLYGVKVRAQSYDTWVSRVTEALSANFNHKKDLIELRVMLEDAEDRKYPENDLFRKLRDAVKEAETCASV
Chain of UniProt Q92547 (whole entry, unmodified, looked up): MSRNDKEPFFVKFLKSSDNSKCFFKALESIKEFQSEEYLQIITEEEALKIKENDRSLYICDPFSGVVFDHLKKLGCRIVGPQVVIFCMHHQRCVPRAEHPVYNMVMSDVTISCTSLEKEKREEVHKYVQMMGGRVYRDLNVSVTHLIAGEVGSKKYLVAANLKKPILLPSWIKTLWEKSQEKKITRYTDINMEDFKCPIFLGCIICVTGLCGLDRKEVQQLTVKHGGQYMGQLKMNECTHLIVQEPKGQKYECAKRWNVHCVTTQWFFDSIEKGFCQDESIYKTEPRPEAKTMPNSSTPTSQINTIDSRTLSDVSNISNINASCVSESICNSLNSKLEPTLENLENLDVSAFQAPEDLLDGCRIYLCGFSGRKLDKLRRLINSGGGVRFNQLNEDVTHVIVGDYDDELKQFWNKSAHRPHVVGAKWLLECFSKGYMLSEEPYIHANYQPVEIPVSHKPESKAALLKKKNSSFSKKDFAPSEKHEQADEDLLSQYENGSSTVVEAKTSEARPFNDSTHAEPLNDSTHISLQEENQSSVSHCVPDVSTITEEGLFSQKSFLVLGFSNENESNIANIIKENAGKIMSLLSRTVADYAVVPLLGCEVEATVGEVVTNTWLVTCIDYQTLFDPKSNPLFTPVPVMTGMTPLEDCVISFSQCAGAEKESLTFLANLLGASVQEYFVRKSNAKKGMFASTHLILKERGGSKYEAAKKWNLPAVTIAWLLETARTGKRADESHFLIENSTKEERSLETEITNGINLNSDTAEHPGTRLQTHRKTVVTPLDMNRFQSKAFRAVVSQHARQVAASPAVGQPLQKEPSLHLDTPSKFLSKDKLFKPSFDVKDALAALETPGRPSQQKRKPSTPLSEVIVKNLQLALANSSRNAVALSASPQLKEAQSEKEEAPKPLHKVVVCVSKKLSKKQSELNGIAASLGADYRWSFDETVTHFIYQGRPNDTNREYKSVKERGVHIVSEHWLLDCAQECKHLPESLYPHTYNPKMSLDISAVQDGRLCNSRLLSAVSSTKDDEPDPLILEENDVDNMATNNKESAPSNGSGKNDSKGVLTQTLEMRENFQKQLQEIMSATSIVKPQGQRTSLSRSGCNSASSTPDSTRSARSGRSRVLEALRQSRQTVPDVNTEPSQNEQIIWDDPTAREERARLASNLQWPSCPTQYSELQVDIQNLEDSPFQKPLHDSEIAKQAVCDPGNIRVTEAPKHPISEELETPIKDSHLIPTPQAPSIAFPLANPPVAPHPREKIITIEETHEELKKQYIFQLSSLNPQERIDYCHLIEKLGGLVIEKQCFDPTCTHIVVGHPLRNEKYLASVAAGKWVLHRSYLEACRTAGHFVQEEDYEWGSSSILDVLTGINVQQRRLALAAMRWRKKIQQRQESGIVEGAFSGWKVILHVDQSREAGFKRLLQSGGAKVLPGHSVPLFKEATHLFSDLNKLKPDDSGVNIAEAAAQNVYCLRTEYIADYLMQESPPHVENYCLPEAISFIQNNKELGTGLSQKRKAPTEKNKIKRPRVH
Chain of UniProt Q14149 (whole entry, looked up): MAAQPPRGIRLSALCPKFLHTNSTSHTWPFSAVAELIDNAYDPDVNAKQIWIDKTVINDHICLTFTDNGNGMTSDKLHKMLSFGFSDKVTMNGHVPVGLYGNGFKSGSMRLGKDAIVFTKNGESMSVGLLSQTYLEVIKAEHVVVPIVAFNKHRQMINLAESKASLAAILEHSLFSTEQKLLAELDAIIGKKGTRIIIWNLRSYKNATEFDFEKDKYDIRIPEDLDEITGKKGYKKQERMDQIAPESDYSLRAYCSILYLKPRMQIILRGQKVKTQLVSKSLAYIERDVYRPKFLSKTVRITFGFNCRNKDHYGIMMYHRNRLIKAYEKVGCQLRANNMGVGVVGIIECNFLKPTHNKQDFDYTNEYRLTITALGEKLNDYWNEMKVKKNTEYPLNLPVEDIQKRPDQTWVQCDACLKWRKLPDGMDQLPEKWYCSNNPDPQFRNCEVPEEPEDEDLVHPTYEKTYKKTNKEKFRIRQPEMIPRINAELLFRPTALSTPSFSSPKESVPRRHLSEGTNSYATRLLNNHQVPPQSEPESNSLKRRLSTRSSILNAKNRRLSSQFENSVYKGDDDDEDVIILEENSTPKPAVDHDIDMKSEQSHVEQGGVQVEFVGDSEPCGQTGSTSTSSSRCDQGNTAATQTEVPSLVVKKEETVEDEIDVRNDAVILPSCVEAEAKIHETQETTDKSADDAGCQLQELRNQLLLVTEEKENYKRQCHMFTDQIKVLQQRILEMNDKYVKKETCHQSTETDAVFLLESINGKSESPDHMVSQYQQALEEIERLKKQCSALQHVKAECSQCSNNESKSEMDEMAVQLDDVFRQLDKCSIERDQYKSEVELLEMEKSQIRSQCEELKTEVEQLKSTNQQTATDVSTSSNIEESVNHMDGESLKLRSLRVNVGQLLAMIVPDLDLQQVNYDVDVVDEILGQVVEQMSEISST

CATTTGTCCACTGGCGTCCGGTCCATTACTCATCGATTCC (dsDNA) — Kd (HapB/HapC/HapE/HapX HapX 24-158; SPR; double-stranded DNA, one strand shown; HapX on preformed CBC:DNA): < 0.1 µM
protein (Streptomyces exfoliatus, UniProt O87916) — koff (PBP2a residues 41-end (Staphylococcus aureus); SPR): 0.000262 s⁻¹
H-YWCKGLCK-NH2 (designed peptide; disulfide 3-7; SMILES CC(C)C[C@@H]1NC(=O)CNC(=O)[C@H](CCCCN)NC(=O)[C@@H](NC(=O)[C@H](Cc2c[nH]c3ccccc23)NC(=O)[C@@H](N)Cc2ccc(O)cc2)CSSC[C@@H](C(=O)N[C@@H](CCCCN)C(N)=O)NC1=O; free N-terminus/C-amide/cyclic disulfide Cys3-Cys7) — binding (RGS4 residues 52-end 52-205, Alexa Fluor 532 label (Homo sapiens, UniProt P49798); flow cytometry; peptide; room temperature): binds
Biotin-ATAPRIDDEIPPPLPVRTPESFIVVEEAGEFSPNVPKSLS (N-biotin; Biotin = O=C1N[C@H]2[C@H](CS[C@H]2CCCCC(=O)*)N1) — kcat (Tyrosine-protein phosphatase non-receptor type 22 (PTPN22, Homo sapiens, UniProt Q9Y2R2); enzyme activity; peptide; 50 nM, pH 6.0, added: DiFMUP): 8.2 ± 0.3 s⁻¹
RmS-3, glycosylated (Rhipicephalus microplus) — protease inhibition (CMA1 (Homo sapiens, UniProt P23946); chromogenic substrate hydrolysis, inhibitor; 1 µM): 23.4%
AATCCAGCCAATCATTCCGACCGTATTACCACGCGGA (dsDNA) — Kd (HapB/HapC/HapE/HapX HapX 24-158; SPR; double-stranded DNA, one strand shown; HapX on preformed CBC:DNA): < 0.1 µM
Glra3/Glrb, Dendra2 fusion (Rattus norvegicus) — diffusion coefficient (Gphn, pS270 (Rattus norvegicus); single particle tracking; synapses, added: forskolin): 0.0058 µm^2/s
QATFMVFQALAQYQKDAP (C3 1270-1287 (Homo sapiens); N- and C-terminal capped) — IC50 (HLA-DRA/HLA-DRB1*03:01 (Homo sapiens); competition with ligand, ELISA; peptide): 77.6 µM
{FITC}-GFID[pS]D[pT]DVEEE-NH2 (peptide; N-terminal FITC, pS5, pT7, C-terminal amide; FITC = O=C1OC2(c3ccc(O)cc3Oc3cc(O)ccc32)c2ccc(NC(=S)*)cc21; pS = N[C@@H](COP(=O)(O)O)C(=O)O; pT = C[C@@H](OP(=O)(O)O)[C@H](N)C(=O)O) — Kd (TOPBP1 641-746 R681E/K682E (Homo sapiens, UniProt Q92547); fluorescence polarisation; peptide; pH 7.5, NaCl 150 mM): 170 ± 10 µM
RmS-17, glycosylated (Rhipicephalus microplus) — protease inhibition (PLAT; chromogenic substrate hydrolysis, inhibitor; 1 µM): < 20%
B1 (traR 1-73) — binding (rpoB β subunit 1-1342 (Escherichia coli, UniProt P0A8V2); crystal structure; without ppGpp): binds
Biotin-GSGSASPQQAKYCYEQCNVNKVPFDQCYQMCSPLERS (WaTx; disulfide 13-31, 17-27; not fully specified; Biotin = O=C1N[C@H]2[C@H](CS[C@H]2CCCCC(=O)*)N1) — mean open dwell time (Transient receptor potential cation channel subfamily A member 1 (TRPA1, Homo sapiens, UniProt O75762); single channel current, inside-out patch; peptide, HEK; 1 µM, after washout, Vh -40 mV, added: iodoacetamide 100 µM): 2.8 ± 0.6 ms
melittin — free energy of partitioning (CD titration; POPC 50% POPG 50% vesicles; pH 7.0, 50 °C): -7.97 kcal/mol
B2 (acrA) — k2 (acrB C493S/C887S/S1043C (Escherichia coli, UniProt P31224); SPR; two-state model, forward second step): 0.0121 M⁻¹ s⁻¹
RmS-6, glycosylated (Rhipicephalus microplus) — protease inhibition (PLAT; chromogenic substrate hydrolysis, inhibitor; 1 µM): < 20%
ART[Lys(Me3)]QTARKSTGGAAPAA (Lys(Me3) = C[N+](C)(C)CCCC[C@H](N)C(=O)O; sequence looked up) — kcat (Lysine-specific demethylase 5A, residues 1-797 (KDM5A, Homo sapiens, UniProt P29375); demethylation, substrate; peptide; mean of two experiments): 0.108 ± 0.007 s⁻¹
SGAGEAEERVVVIDDDEDDDAENSSSRY (PML 547-573 S560D/S561D/S562D/S565D (Homo sapiens, UniProt P29590)) — Kd (SUMO2 14-93 C48A (Homo sapiens, UniProt P61956); ITC; peptide; pH 7.4, 25 °C): 2.9 ± 0.8 µM
ARTKQTARKSTG (Histone H3.1 2-13 (Homo sapiens, UniProt P68431); sequence looked up) — Kd (MORC3 401-455 (Homo sapiens, UniProt Q14149); fluorescence titration; peptide): 7 µM

Some of these lines once more:
Biotin-ATAPRIDDEIPPPLPVRTPESFIVVEEAGEFSPNVPKSLS (N-biotin; Biotin = O=C1N[C@H]2[C@H](CS[C@H]2CCCCC(=O)*)N1) — kcat (Tyrosine-protein phosphatase non-receptor type 22 (PTPN22, Homo sapiens, UniProt Q9Y2R2); enzyme activity; peptide; 50 nM, pH 6.0, added: DiFMUP): 8.2 ± 0.3 s⁻¹
AATCCAGCCAATCATTCCGACCGTATTACCACGCGGA (dsDNA) — Kd (HapB/HapC/HapE/HapX HapX 24-158; SPR; double-stranded DNA, one strand shown; HapX on preformed CBC:DNA): < 0.1 µM
